Results collected from several papers.
Compare with care: the assays were run in different laboratories.

SMILES | assay | test system | conditions | scale | quantity | result
Cn1nccc1[C@]1(CNC(=O)c2ccc(F)c(F)c2-c2ccc(C(F)(F)F)cc2)NC(=O)NC1=O | – | dog | oral, 1.0 mg/kg | – | dose-normalised AUC | 68 kg·h/L
Cn1c(-c2ccc(C(N)=O)cc2F)nnc1C(C)(C)Oc1c(F)cc(Cl)cc1F | – | human | oral, 60 mg, single ascending dose | – | subjects with drug-related TEAE | 0%
C[C@]1(CO)Cc2ncn(-c3ccc(C#N)c(Cl)c3)c2C(=O)O1 | – | healthy humans | 10 mg, fed | – | drug-related Headache incidence | 0%
CN1CCN(S(=O)(=O)c2cc([N+](=O)[O-])ccc2N(CCOS(C)(=O)=O)CCOS(C)(=O)=O)CC1 | – | naive NOD/SCID mice, pooled blood | intraperitoneal, 25 mg/kg, week 4 | – | globulin | 16 g/L
CC(C)c1nc(N(C)S(C)(=O)=O)nc(-c2ccc(F)cc2)c1/C=C/[C@@H](O)C[C@@H](O)CC(=O)O | – | healthy human subjects | oral, dose not given, study CL-0537 safety set | – | incidence of decreased appetite | 0%
CC(C)C[C@H](NC(=O)[C@H](CCC(N)=O)NC(=O)[C@H](C)NC(=O)[C@H](C)NC(=O)[C@H](CCCNC(=N)N)NC(=O)[C@H](CCCNC(=N)N)NC(=O)[C@H](CCCNC(=N)N)NC(=O)[C@H](CC(C)C)NC(=O)[C@H](Cc1c[nH]cn1)NC(=O)[C@@H](NC(=O)[C@H](CCCCN)NC(=O)[C@H](CCCNC(=N)N)NC(=O)[C@H](CCCNC(=N)N)NC(=O)[C@H](CCCNC(=N)N)NC(=O)[C@H](CCC(N)=O)NC(=O)[C@H](CCCNC(=N)N)NC(=O)[C@H](CCCNC(=N)N)NC(=O)[C@H](CCCCN)NC(=O)[C@H](CCCCN)NC(=O)[C@H](CCCNC(=N)N)NC(=O)CNC(=O)[C@@H](N)Cc1ccc(O)cc1)[C@@H](C)O)C(=O)N[C@@H](CCCCN)C(N)=O | flinch jump test | rat | bilateral CA1 microinjection, dose not given | reference: saline | flinch threshold | increased
C=CCNc1c(O)cc2c(O)c1C[C@@H](C)C[C@H](OC)[C@H](O)[C@@H](C)/C=C(\C)[C@H](OC(N)=O)[C@@H](OC)/C=C\C=C(/C)C(=O)N2 | – | unresectable or metastatic STS, GIST, other | intravenous, 150 mg/m^2 | – | patients with infusion site pain | 33%
CCS(=O)(=O)Nc1ccc(Oc2ccc(F)cc2F)c(-c2cn(C)c(=O)c3[nH]ccc23)c1 | myocardial infarction leading to discontinuation | human, relapsed/refractory AML | oral, dose not given | – | treatment-emergent adverse events | 5%
COc1ncnn2ccc(-c3cnc4nc(C)n(Cc5nnc([C@@H](C)F)o5)c4c3)c12 | – | human patients | oral, dose not given, all-grade adverse drug reaction | – | incidence of Pyrexia | 14.3%
CN1CCN(C2=Nc3ccccc3Nc3ccccc32)CC1 | – | male C57BL/6 mice | intraperitoneal, 10 mg/kg, 30 min | – | brain to plasma ratio | 10.4
Cc1cc(C)nc(Nc2ncc(C(=O)NCCc3c(C)[nH]c4ccccc34)cn2)c1 | – | human liver microsomes | 1 µM | – | maximal hepatic bioavailability | 51%
CCCCCCCCCCCCCCCC(=O)N[C@@H](CCC(=O)NCCCC[C@H](NC(=O)[C@H](CC(=O)O)NC(=O)[C@H](CO)NC(=O)[C@@H](NC(=O)[C@H](Cc1ccccc1)NC(=O)[C@@H](NC(=O)CNC(=O)[C@H](CCC(N)=O)NC(=O)[C@H](CO)NC(=O)[C@@H](N)Cc1c[nH]cn1)[C@@H](C)O)[C@@H](C)O)C(=O)N[C@@H](CO)C(=O)N[C@@H](CCC(=O)O)C(=O)N[C@@H](Cc1ccc(O)cc1)C(=O)N[C@@H](CC(C)C)C(=O)N[C@@H](CC(=O)O)C(=O)N[C@@H](CO)C(=O)N[C@@H](CCC(=O)O)C(=O)N[C@@H](CCCNC(=N)N)C(=O)N[C@@H](C)C(=O)N[C@@H](CCCNC(=N)N)C(=O)N[C@@H](CC(=O)O)C(=O)N[C@@H](Cc1ccccc1)C(=O)N[C@H](C(=O)N[C@@H](C)C(=O)N[C@@H](Cc1c[nH]c2ccccc12)C(=O)N[C@@H](CC(C)C)C(=O)N[C@@H](CCC(=O)O)C(=O)N[C@@H](C)C(=O)NCC(=O)NCC(=O)O)C(C)C)C(=O)O | item: Nausea | humans CrCl 45 to 60 mL/min | subcutaneous, 100 µg single dose | – | treatment-related adverse events | 28.6%
O=C(Nc1ccccc1)C1CCN(C(=O)Oc2cccnc2)CC1 | adverse event reporting | healthy women | oral, 20 mg, 7 days | – | subjects with Hypoaesthesia adverse event | 7.1%
CCCCCCCCCC(=O)N[C@@H](Cc1c[nH]c2ccccc12)C(=O)N[C@H](CC(N)=O)C(=O)N[C@@H](CC(=O)O)C(=O)N[C@@H]1C(=O)NCC(=O)N[C@@H](CCCN)C(=O)N[C@@H](CC(=O)O)C(=O)N[C@H](C)C(=O)N[C@@H](CC(=O)O)C(=O)NCC(=O)N[C@H](CO)C(=O)N[C@@H]([C@H](C)CC(=O)O)C(=O)N[C@@H](CC(=O)c2ccccc2N)C(=O)O[C@@H]1C | population PK model | human | intravenous, two-compartment model | – | clearance | 0.011 L/min
CCc1ccc(CC/C=C/c2ccc3c(c2)C(=O)CC3)cc1 | – | Sprague-Dawley rat, male | oral, 450 mg/kg/day, 14 days | – | Neutrophil percentage | 14.8%
